Measured values from different studies.
Protocols differ between the studies behind these lines. “And” joins repeats or separate records; there may be more than shown. ± marks the error that the study gave. Converted amounts (≈) assume the structure as drawn.

SMILES	target or system	assay	test system	setting	scale	endpoint	result
CC1=C(Cn2cc(CBr)nn2)C(=O)c2ccccc2C1=O	Schistosoma mansoni		adult worms	25 µM, 48 h		killing	50%
COc1ccc(CN2CCN(C(c3ccc(F)cc3)c3ccc(F)cc3)CC2)c(OC)c1OC.Cl.Cl	Nedd8-cullin1 interaction	neddylation, AlphaScreen		100 µM		inhibition	-8.9%
OC(Cn1cncn1)(Cn1cncn1)c1ccc(F)cc1F	Candida tropicalis	EUCAST		48 h		MIC50	100 µM
Fc1cc(F)c(-c2c(Cl)nc(-c3cccs3)nc2NC2CCC2)c(F)c1	Schistosoma mansoni	worm motility	adult worms ex vivo	24 h		EC50	0.55 µM
CN1CCN(c2ccc(-c3ccc4c(Nc5cnccn5)cnnc4c3)cc2)CC1	Schistosoma mansoni		adult worms	10 µM, 5 h	direction not given	phenotypic severity score	0
C(=N\Nc1ccccc1)/c1ccc(-c2ccc(/C=N/Nc3ccccc3)cc2)cc1	Candida albicans		ATCC MYA-2310 susceptible		relative to: mammalian CC50 over MIC	selectivity index	< 0.6
CC1=C(Cc2cn(CCOS(=O)(=O)c3ccc(C)cc3)nn2)C(=O)c2ccccc2C1=O	Schistosoma mansoni		adult worms	25 µM, 24 h		killing	34%
COc1cc2c(cc1OC)[C@@H]1C(=O)c3ccc4c(c3O[C@@H]1CO2)C=CC(C)(C)O4	human adenovirus C5 wild type	qPCR	A549	10 µM, 24 h post-infection	relative to: DMSO control	viral genome replication	decreased
CC1=C(Cc2cn(CCN3CCC(F)(F)CC3)nn2)C(=O)c2ccccc2C1=O	Schistosoma mansoni		adult worms	25 µM, 72 h		killing	53.8%
C=C1[C@H](CO)[C@@H](O)C[C@@H]1n1cnc2c(=O)[nH]c(N)nc21	Hepatitis B virus	measured: HBV pgRNA	chronic HBV infection patients	0.5 mg/day, 28 days	relative to: baseline	maximum change in serum pgRNA	-1.05 log10 copies/mL
COc1ccc(Nc2cnnc3ccc(-c4ccc(S(=O)(=O)N5CCN(C)CC5)cc4)cc23)cc1Cl	Schistosoma mansoni		adult worms	10 µM, 5 h	direction not given	phenotypic severity score	1
CC1=C(Cn2ccnc2[N+](=O)[O-])C(=O)c2ccccc2C1=O	Schistosoma mansoni		adult worms	10 µM, 24 h		killing	42.5%
Nc1nc(-c2ccccc2)nc2[nH]nc(Nc3ccc(C(F)(F)F)cc3)c12	coxsackievirus B3		31-1-93, NMRI mice, CVB3 chronic myocarditis	oral, 100 mg/kg twice daily, day 11, dosed days 1 to 7, score scale 0 to 7	direction not given	clinical score	0.22
COc1ccc(Nc2cnnc3cc(-c4ccc(S(=O)(=O)N5CCN(C)CC5)cc4)ccc23)cc1	Schistosoma mansoni		adult worms	10 µM, 1 h	direction not given	phenotypic severity score	0
COC(=O)[C@H](Cc1ccc(O)cc1)NCc1cc2ccccc2nc1SC	Pseudomonas aeruginosa			128 µg/mL, without pentamidine	relative to: control	growth	84.6%
OC(Cn1cncn1)(Cn1cncn1)c1ccc(F)cc1F	Candida albicans	growth, broth microdilution		24 h		MIC	2 µg/mL (≈ 6.53 µM)
CC1=C(Cn2cc(CN(Cc3ccccc3)Cc3ccccc3)nn2)C(=O)c2ccccc2C1=O	Schistosoma mansoni		adult worms	25 µM, 72 h		killing	48.1%
COc1ccc(Nc2cnnc3cc(-c4cnc(N5CCCN(C)CC5)nc4)ccc23)cc1Cl	Schistosoma mansoni		adult worms	10 µM, 5 h	direction not given	phenotypic severity score	0
CC(=O)N1CCC(C(=O)N2CCN3C(=O)c4cc(-c5ccccc5)ccc4NC(=O)C3C2)CC1 (centres unmarked)	Caenorhabditis elegans		N2	12.5 µM		mean lifespan	19.5 days
COc1ccc(Nc2cnnc3cc(-c4cnc(N5CCN(C)CC5)nc4)ccc23)cc1Cl	Schistosoma mansoni		adult worms	10 µM, 1 h	direction not given	phenotypic severity score	1
CC(C)n1ncc2c(C(=O)NCC3(C)CNC3)cc(C3CC3)nc21	Enterovirus D68	cytopathic effect	RD, US/MO/14-18947	500 nM		cell protection	93.2% and 101% and 98.5%
N#CC(=C1C=CC(=NOC(=O)OCc2ccccc2)C=C1)c1ccccc1	Kluyveromyces marxianus	broth dilution	ATCC 204093	48 h, 37 °C		MFC	64 µg/mL (≈ 180 µM)
CCn1cc(-c2cc(Cn3ccnc3)cc3c2CCN([C@H](c2cc(OC)ccn2)C2CC2)C3=O)c(C(F)(F)F)n1	COV504	cell growth, inhibitor		120 h		EC50	12.3 µM
COc1ccc(Nc2cnnc3ccc(-c4cnc(N5CCCN(C)CC5)nc4)cc23)cc1Cl	Schistosoma mansoni		adult worms	10 µM, 48 h	direction not given	phenotypic severity score	2

SMILES	target or system	assay	test system	setting	scale	endpoint	result
CCOC(=O)C1=C(CN2CCC[C@H]2C(=O)Nc2cccc(B(O)O)c2)NC(c2nccs2)=N[C@@H]1c1ccc(F)cc1Br	Hepatitis B virus	HBV DNA reduction, qPCR, measured: positive-strand DNA	HepDES19	3 days		EC50	37.7 ± 8.02 µM
CNC(C)C1CCC(N)C(OC2C(N)CC(N)C(OC3OCC(C)(O)C(NC)C3O)C2O)O1 (centres unmarked)	Pseudomonas aeruginosa		clinical isolate RKI-No_584/15			MIC	8 µg/mL (≈ 16.8 µM)
CO[C@H]1/C=C/O[C@@]2(C)Oc3c(C)c(O)c4c(c3C2=O)C2=NC3(CCN(CC(C)C)CC3)NC2=C(NC(=O)/C(C)=C\C=C\[C@H](C)[C@H](O)[C@@H](C)[C@@H](O)[C@@H](C)[C@H](OC(C)=O)[C@@H]1C)C4=O	Mycobacteroides abscessus		ATCC 19977, caseum surrogate	5 d, non-replicating		MBC	72 µM (≈ 61 µg/mL)
CC1=C(Cn2cc(CN3CCN(C(=O)OC(C)(C)C)CC3)nn2)C(=O)c2ccccc2C1=O	Schistosoma mansoni		adult worms	25 µM, 72 h		killing	51%
CN(C)c1ccc(O)c2c1C[C@H]1C[C@H]3[C@H](N(C)C)C(O)=C(C(N)=O)C(=O)[C@@]3(O)C(O)=C1C2=O	Brugia malayi		SCID mouse	dose not given, 6 weeks post-treatment, dosing x28d		total adult worm count	7
C[C@H](CCCC(C)(C)O)[C@H]1CC[C@H]2[C@@H]3CC=C4C[C@@H](O)CC[C@]4(C)[C@H]3CC[C@]12C	Human rotavirus		Caco-2, DS-1			EC50	0.43 µM
CC(=Nc1ccc(N=Cc2cnccn2)cc1)N(C)C	Necator americanus		infected hamsters, small intestine	oral, 50 mg/kg single, 2 h		worm count	10.5 ± 1.8
COC[C@H]1O[C@@H]2O[C@@H]3[C@@H](OC)[C@@H](OC)[C@@H](O[C@@H]4[C@@H](OC)[C@@H](OC)[C@@H](O[C@@H]5[C@@H](OC)[C@@H](OC)[C@@H](O[C@@H]6[C@@H](OC)[C@@H](OC)[C@@H](O[C@@H]7[C@@H](OC)[C@@H](OC)[C@@H](O[C@@H]1[C@@H](OC)[C@H]2OC)O[C@@H]7COC)O[C@@H]6COC)O[C@@H]5COC)O[C@@H]4COC)O[C@@H]3COC	Escherichia coli	LuxR reporter, antagonist	DH5α sensor strain	200 µM, together with: OHHL 200 nM		inhibition	-1 ± 2%
N=C(N)c1ccc(OCc2ccc(-c3ccccc3)cc2COc2ccc(C(=N)N)cc2)cc1	Escherichia coli	checkerboard	BW25113	synergy at FICI ≤0.5, unit not given, together with: novobiocin	lower = stronger synergy	FICI	≤ 0.031
Cc1cc(OC(C)C)ccc1C(=O)C(C)(C)NC(=O)c1sccc1C	Botrytis cinerea	appressorium formation	B05.10	0.01 µg/mL		inhibition	16.9 ± 17.5%
O=[N+]([O-])c1cc(F)c(-c2c(Cl)nc(-c3cccs3)nc2NCC2CCC2)c(F)c1	Schistosoma mansoni	motility	adult worms, ex vivo	24 h		EC50	0.316 µM
N=C(N)c1ccc(OCc2ccc(Br)cc2COc2ccc(C(=N)N)cc2)cc1	Escherichia coli	checkerboard	mcr-1 polymyxin-resistant	unit not given, together with: rifampicin	lower = stronger synergy	FICI	0.063
COC(=O)[C@H](Cc1c[nH]c2ccccc12)NCc1cc2ccccc2nc1SC	Pseudomonas aeruginosa			16 µg/mL, without pentamidine	relative to: control	growth	98%
CC1=C(Cc2cn(CCN3CCOCC3)nn2)C(=O)c2ccccc2C1=O	Schistosoma mansoni		adult worms	25 µM, 72 h		killing	49%
CCOC(=O)C1=C(C)NC(C)=C(C(=O)OCC)C1c1ccccc1/C=C/C(=O)OC(C)(C)C	Nedd8-cullin1 interaction	neddylation, AlphaScreen		100 µM		inhibition	14.8%
CN[C@H](CC(C)C)C(=O)N[C@H]1C(=O)N[C@@H](CC(N)=O)C(=O)N[C@H]2C(=O)N[C@H]3C(=O)N[C@H](C(=O)N[C@H](C(=O)O)c4cc(O)cc(O)c4-c4cc3ccc4O)[C@H](O)c3ccc(c(Cl)c3)Oc3cc2cc(c3O[C@@H]2O[C@H](CO)[C@@H](O)[C@H](O)[C@H]2O[C@H]2C[C@](C)(N)[C@H](O)[C@H](C)O2)Oc2ccc(cc2Cl)[C@H]1O	Staphylococcus aureus		MRSA, 10 isolates	serum 0%		MIC50	2 µg/mL
CCn1cc(-c2cc(Cn3ccoc3=N)cc3c2CCN([C@@H](C)c2cc(OC)ccn2)C3=O)c(C(F)(F)F)n1	COLO 201	cell growth, inhibitor		120 h		EC50	4.99 µM
CC1=C(Cc2cn(CCO)nn2)C(=O)c2ccccc2C1=O	Schistosoma mansoni	viability	adult worms	72 h		IC50	7.3 µM
CN1CCN(S(=O)(=O)c2ccc(-c3ccc4nncc(Nc5cnccn5)c4c3)cc2)CC1	Schistosoma mansoni		adult worms	10 µM, 24 h	direction not given	phenotypic severity score	0
C[C@H]1c2cccc(O)c2C(=O)C2=C(O)[C@]3(O)C(=O)C(C(N)=O)=C(O)[C@@H](N(C)C)[C@@H]3[C@@H](O)[C@@H]21	Brugia malayi		SCID mouse	x42d dosing, 6 weeks post-treatment		median adult worm burden	7 worms per mouse
OC(Cn1cncn1)(Cn1cncn1)c1ccc(F)cc1F	Candida albicans		ATCC 60193	4 × MIC, 12 h		viable cell reduction	65 to 70%
Cc1ccc(Nc2cnnc3ccc(-c4ccc(N5CCN(C)CC5)cc4)cc23)cn1	Schistosoma mansoni		adult worms	10 µM, 24 h	direction not given	phenotypic severity score	1
CC(=O)ON=C1C=CC(=C(C#N)c2ccccc2)C=C1	Candida albicans	planktonic growth		concentration not given, MIC, 2 and 4		growth rate	decreased
